# Assay results gathered from unrelated publications.
# Every numbered part comes from another study and shows a few of its results, in no order. Changes are numbered by the printed parent chain.

# Series 1 — technique: RNA Bind-n-Seq; form: RNA; sample: in vitro; tested at: not given; setting: RNA with constant flanks, ends assumed; baseline: input RNA pool; direction: higher = stronger binding
# Target: RING finger protein unkempt homolog, zinc fingers 1-6, GST-SBP tag (UNK, Homo sapiens, UniProt Q9C0B0, residues 30-357)
# UniProt Q9C0B0, sequence (30-357, looked up): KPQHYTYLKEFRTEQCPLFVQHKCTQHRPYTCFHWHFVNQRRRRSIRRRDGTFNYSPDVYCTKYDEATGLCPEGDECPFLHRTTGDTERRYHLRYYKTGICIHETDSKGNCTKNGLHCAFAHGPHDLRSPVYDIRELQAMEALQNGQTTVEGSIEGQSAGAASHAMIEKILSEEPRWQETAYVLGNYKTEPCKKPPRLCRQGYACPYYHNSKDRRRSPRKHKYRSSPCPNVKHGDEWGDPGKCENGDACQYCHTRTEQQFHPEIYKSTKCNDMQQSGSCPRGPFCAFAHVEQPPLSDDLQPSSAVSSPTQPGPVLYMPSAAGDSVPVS
# Shared flanks, not repeated: GGGAGUUCUACAGUCCGACGAUC … CAACAGAGGAUUGAGCAUCA
Sequence,bound/input enrichment
UGCUUCAGAACCCUUGUCUGUUGUGGUAUUGUAGAUGGGUUUAAGUCAUGGCCUCUUUUGACCGAUUUUGUUGUGUCAUGUGAGCAAGUCAUUACACGAUCUACUGUUGGAAUGAACUGU,0.154 ratio
GACUCCACAGAUUGUGAGUGUGUGAGUGUGUGUGUGAGUGAGAGAAAAAGAGAGAGAUGGUCCGUCUGUUUAACCUGUCUGUCUAUCUGUCAUUUCUUCCUCUGGACCUGGGGCAGCCAA,0.354 ratio
ACAUCUGACUGCUGGAUGAAGACUGUUCCAAGUUAUAACCAAACAAAUAGCUCCAUGGACUUCCGAAAUUAUAUGAUGAGAGAUGAGAAUCUGGAACCGCUGCCCAAAAACUGGGAAAUG,0.305 ratio
CCAUGUUUGCCAAAGGCAAAGGCUCGGCGGUGCCCUCGGACGGGCAGGCUCGGGAAAAGUCCGCUUUAUACGUCUACGAAUAUUUACUGCACGUAGGAGCACAGAAAUCUGCACAGACCU,0.108 ratio
GUGAGAGGCGAGAAGGAGGCUCUAGACCUGCGAAAGGAAAAAGAAACCCUUGAGAGGAAACUCCGAGAUGCAAGUAAGGAAUUGGAGAAAAACACUAACAAAAUUAAGCAGCUGUCUCAG,0.343 ratio
AAAGCUGCACUGAAAAGCUUGAUUCCUACAUUGGAAAAAACCAAAAGCACCAGCAAAGGAACCGAAAUUCUACUUGAAAAACUGAGCACAUAGGUGGAAAGAGUUAAGAGCAAGAUGGAA,0.159 ratio

# Series 2 — target: CCND1, cyclin fold, Cln2 fusion (human); technique: yeast growth competition, sequencing; sample: yeast; setting: weak parent motif; baseline: not given; direction: higher = stronger binding
# Starting sequence: GMNC docking peptide (human); KNAKRNLSSEFAN
Change,normalised enrichment score
K4I,1.28
R5G,0.376
R5L,0.108
S9Q,0.459
S8E,0.491
S9R,0.846
S8V,0.46
N2I,0.179

# Series 3 — technique: protein binding microarray; form: double-stranded DNA, one strand shown; sample: in vitro; tested at: not given; baseline: not given; direction: higher = stronger binding
# Target: Histone acetyltransferase KAT6A, winged helix 1, GST fusion (KAT6A, Homo sapiens, UniProt Q92794, residues 1-85)
# Setting: 8-mer, flanks averaged, mean of 2 arrays, mostly near background
# Construct (chain): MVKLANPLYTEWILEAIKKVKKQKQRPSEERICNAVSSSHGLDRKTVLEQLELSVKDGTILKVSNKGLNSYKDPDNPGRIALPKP
Sequence,E-score
CCGGCCAC,0.122
ACGACTCG,-0.0813
CCCCAGGC,-0.114
CGGGTCAA,0.184
GGCACCTA,0.0798
GCGAAACC,0.144
CAATGGCA,-0.079
TCTTCCAA,-0.154
CACACGGG,0.205

# Single results of other studies
Molecule,target,test,test system,conditions,how to read,endpoint,value
"PhoQ, residues 284 288 289 292 302 303 SMMNNA","PhoP, residues 12 14 15 18 19 LWHVM (Escherichia coli, UniProt P23836)","Sort-seq, measured: YFP reporter",E. coli,"PhoQ-PhoP variant library, added: 10 µM Mg2+","baseline: high Mg2+ state, higher = stronger signaling",fold induction,5.6
